Results gathered from unrelated publications.
Numbered parts are unrelated; each lists some results of a single study. Positions count from the first letter of the parent shown.

Study 1
Target: Ras GTPase-activating protein-binding protein 1, RRM domain (G3BP1, Homo sapiens, UniProt Q13283)
Sequence of UniProt Q13283 (whole entry, looked up): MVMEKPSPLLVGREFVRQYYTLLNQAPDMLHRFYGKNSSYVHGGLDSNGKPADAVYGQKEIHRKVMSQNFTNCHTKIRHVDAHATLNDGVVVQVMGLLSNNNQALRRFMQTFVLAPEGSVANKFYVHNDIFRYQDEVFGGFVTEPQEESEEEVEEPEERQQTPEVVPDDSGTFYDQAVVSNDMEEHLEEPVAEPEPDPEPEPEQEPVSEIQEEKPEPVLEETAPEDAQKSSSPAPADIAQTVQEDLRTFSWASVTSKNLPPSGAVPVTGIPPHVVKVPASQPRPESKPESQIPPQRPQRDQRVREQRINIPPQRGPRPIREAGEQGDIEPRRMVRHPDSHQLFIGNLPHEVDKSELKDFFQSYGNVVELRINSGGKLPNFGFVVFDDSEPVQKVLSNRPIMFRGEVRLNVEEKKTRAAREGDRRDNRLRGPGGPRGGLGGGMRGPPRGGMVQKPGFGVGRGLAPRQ
Technique: RNA Bind-n-Seq
Form: RNA
Sample: in vitro
Tested at: 1 µM
Setting: whole 134-nt RNA, ends assumed
Added: 150 mM KCl
Baseline: input library
Direction: higher = stronger binding
Endpoint: log2 enrichment
Shared flanks, not repeated: GGGAGUUCUACAGUCCGACGAUC … UGGAAUUCUCGGGUGUCAAGG
Sequence = UAACUUUAGAGGAGGAUCUGAUGGAUAUGGCAGUGGACGUGGAUUUGGGGAUGGCUAUAAUGGGUAUGCAGGAGGACCUGGAGGUGGCAA; result = -0.458
Sequence = AAGUCCUGUGCUACACAUCGUAUGUACCGAAUCGGAAAAAGGAAAGGAAAAAAAGGAAAGUAUUAUGUUACGCCGUUCGGAUCUGCACUU; result = 0.101
Sequence = AGUGACCAUUUUAGUUAAAUUUUGUUCCUCUUCCCCCUUUUCACUUUCCUGGAAGAUCGAUGUCCCGAUCAGGAAGGUAGAGAGUUUUCC; result = -0.343
Sequence = CACAGACAACACGCACCCACACAGACACAGAAAGAAGGGGUUGGGAUGGGGACAGGGUGCACAGCAGGGCGGGGUAGGACCCCAGCCCCU; result = -0.207
Sequence = UUCCUUCCACGACCCCUGAAGAGCAGCGGUGGGUCUGAGCAUCCUAUCUCCAGGAAGCAGGCCAGCAGGCAAGCCAGCUGCCACCUCGUC; result = -0.206
Sequence = GCAGGAAGUAAAAACAAAUGGAAAUGCUUCGGAUAGUGGCAGCGGUGGGGGUUGCUAAGGAAAGGGUGGGAUGGGAGUGGGUAAAGAGUU; result = 0.866
Sequence = AGUCCUGUGCUACACAUCGUAUGUACCGAAUCGGGAAAAAGGGAGGGAAAAAAAGGGAAAGUAUUAUGUUACGCCGUUCGGAUCUGCACU; result = 0.26
Sequence = AGUCCUGUGCUACACAUCGUAUGUACCGAAUCGGGGUGGGGUUUUUGGGGUUUGGGGAAAGUAUUAUGUUACGCCGUUCGGAUCUGCACU; result = 0.54

Study 2
Target: PABPC1L2, full length, GST fusion (mouse, UniProt A0ABA7IW68)
Technique: RNAcompete
Form: RNA
Sample: in vitro
Tested at: 20 nM
Setting: 7-mer, probes averaged, single round
Baseline: mean of 7-mers
Direction: higher = stronger binding
Endpoint: 7-mer Z-score
Construct (chain): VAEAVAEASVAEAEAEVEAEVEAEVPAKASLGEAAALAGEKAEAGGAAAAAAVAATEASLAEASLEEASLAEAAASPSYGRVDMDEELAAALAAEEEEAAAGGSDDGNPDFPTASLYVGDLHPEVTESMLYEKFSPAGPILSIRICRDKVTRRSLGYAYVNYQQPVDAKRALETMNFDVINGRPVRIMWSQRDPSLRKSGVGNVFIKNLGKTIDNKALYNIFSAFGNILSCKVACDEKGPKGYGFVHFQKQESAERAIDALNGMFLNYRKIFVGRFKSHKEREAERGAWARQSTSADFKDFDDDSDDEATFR
Sequence = UGCGCCC; result = -0.391
Sequence = AGCAUCU; result = -0.168
Sequence = GUCUGCC; result = -0.358
Sequence = GAAAUUU; result = 0.354
Sequence = GUGUGCA; result = 0.0551
Sequence = GAGGUUG; result = -0.00289
Sequence = UACGGUG; result = -0.108
Sequence = UUACCUC; result = -0.298

Study 3
Target: MAFG, bZIP domain (human)
Technique: DHFR protein complementation
Sample: yeast
Setting: single substitutions, most at no-binding floor
Baseline: wild-type JUN-FOS pair
Direction: higher = stronger binding
Endpoint: binding fitness
Parent: JUN, bZIP domain (human); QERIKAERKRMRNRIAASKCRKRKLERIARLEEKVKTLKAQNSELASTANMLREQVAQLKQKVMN; partner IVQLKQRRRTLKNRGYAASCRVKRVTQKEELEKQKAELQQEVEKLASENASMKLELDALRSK
Variant = A40V; result = -1.47 natural log
Variant = R30G; result = -1.35 natural log
Variant = M51N; result = -1.5 natural log
Variant = A49Y; result = -1.38 natural log
Variant = K36L; result = -1.32 natural log
Variant = K39H; result = -1.52 natural log
Variant = S47Y; result = -1.57 natural log
Variant = T48K; result = -1.5 natural log

Further values, each from its own experiment
Parent: viral docking peptide; KKAKRRLFTISDS
Variant = KKAARRLFTISDS [K4A]; target = CCND1, cyclin fold, Cln2 fusion (human); test = yeast growth competition, sequencing; test system = yeast; setting = weak parent motif; how to read = baseline: not given, higher = stronger binding; endpoint = normalised enrichment score; result = -0.0298

Repeated from above (study 1):
Sequence = AGUGACCAUUUUAGUUAAAUUUUGUUCCUCUUCCCCCUUUUCACUUUCCUGGAAGAUCGAUGUCCCGAUCAGGAAGGUAGAGAGUUUUCC; result = -0.343
Sequence = CACAGACAACACGCACCCACACAGACACAGAAAGAAGGGGUUGGGAUGGGGACAGGGUGCACAGCAGGGCGGGGUAGGACCCCAGCCCCU; result = -0.207
Sequence = UUCCUUCCACGACCCCUGAAGAGCAGCGGUGGGUCUGAGCAUCCUAUCUCCAGGAAGCAGGCCAGCAGGCAAGCCAGCUGCCACCUCGUC; result = -0.206
